Results from different studies.
Every numbered part comes from another study and shows a few of its results, in no order. Changes are numbered by the printed parent chain.

Sample 1 — method: RNA Bind-n-Seq; molecule type: RNA; sample: in vitro; concentration: 20 nM; notes: 6-mer, flanks averaged, single round; with: 150 mM KCl; baseline: input library; direction: higher = stronger binding
Target: TAR DNA-binding protein 43, full length, His tag (TARDBP, Homo sapiens, UniProt Q13148, residues 1-414)
| Sequence | 6-mer enrichment (R) |
| --- | --- |
| UCCUUC | 0.549 |
| GUAGUG | 1.53 |
| UCGGAC | 0.858 |
| GCUGUG | 1.36 |
| GUACAU | 0.655 |
| AAACGA | 0.607 |
| ACAGCC | 0.667 |
| CUGCAG | 0.862 |

Sample 2 — method: RNA Bind-n-Seq; molecule type: RNA; sample: in vitro; concentration: 365 nM; baseline: no-protein control; direction: higher = stronger binding
Target: RNA binding protein fox-1 homolog 2, RRM domain, GST-SBP tag (RBFOX2, Homo sapiens, UniProt O43251-10, residues 100-194)
Notes: natural RNA segment, single round, ends assumed
Shared flanks, not repeated: GGGAGUUCUACAGUCCGACGAUC … UGGAAUUCUCGGGUGCCAA
Target sequence (chain): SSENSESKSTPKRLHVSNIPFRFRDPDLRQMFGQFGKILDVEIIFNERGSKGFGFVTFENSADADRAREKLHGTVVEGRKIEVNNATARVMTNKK
| Sequence | RBNS enrichment (R) |
| --- | --- |
| AUCUUUUUUUAAUGGAAUGUGGUACAAAUUGUUCAUGUUACCAAAGCAAUAUUUCCCUGGAAUUUAAUUCAAAGUUUGUGGCAUACAACCUGAGCCUUUUCUUAUAUAAG | 0.916 |
| CAUAAUUUAAUACAGAUUGAUGUUAAUACUUGUGUAUUUACAUAACCGUUUCCUUCUUGUCACUGAAAUAUAUGGACCUUAAUUUGUAUCCUGACUGACUCAACCCAGCA | 1.64 |
| UUAUGGGUUAUAUGCCUAAACCCUUAUGCCACAUAGUGGUAAAUAAUUAUGAAAAAUGGUCUGUUCAUAAUUGGUAGGUGCCUUUUGUGAGCAGGGAGCAUAAUUAUUGG | 0.365 |
| UUACUAAAACUGUGGCUUAGUAGUAAGCUGAGGGCUAAAUGAGAGACUGCUAUUCUAAGAGCAUCAGGGCUCUGAGGGCCAAAGAAGCAAUGGGAGUCCUGAGCUAGUAU | 0.547 |
| AAAUCAAGUCCCAUGCUCCAAUCUCACCCCUGUCCAGGAUAGGAGCAAACUCAACCAAGAACUGCUCAUUCAGACUCGUGAAACGACCCAGAGAGGGCUCAGAAACGGCC | 0.508 |
| GAGCGAGUACUGUUUUGUGGUGACAUCUUAGGUGUUUCCUUUCUCCCAGGCUGCUGCUCUGUGGUAUUUCCAGUCUCAGACUUGUGUUGUGGAGUCAUGGUGUUAGUGUU | 0.623 |
| AAUGCAUAAUAAAUGCUUUGUGCUUCUGACUAUCAAUACCUAAAGAAAGUGCAUCAGUGAAGAGAUGCAAGACUUUCAACUGACUGGCAAAAAGCAAGCUUUAGCUUGUC | 0.2 |
| GAAGCUGAAUGGAAUCUGACGGUUGGGAGUGGUGGAAAUUGGAAGGAUACCAGGAGGUAUUUGGGAAGGCCAAUGGCGUGGCUCCUUUGAGGAAAUAAAACACUAAGCAU | 1.39 |

Sample 3 — method: RNA Bind-n-Seq; molecule type: RNA; sample: in vitro; concentration: 100 nM; baseline: input RNA pool; direction: higher = stronger binding
Target: RING finger protein unkempt homolog, zinc fingers 1-6, SBP tag (UNK, Homo sapiens, UniProt Q9C0B0, residues 30-357)
UniProt Q9C0B0, sequence (30-357, looked up): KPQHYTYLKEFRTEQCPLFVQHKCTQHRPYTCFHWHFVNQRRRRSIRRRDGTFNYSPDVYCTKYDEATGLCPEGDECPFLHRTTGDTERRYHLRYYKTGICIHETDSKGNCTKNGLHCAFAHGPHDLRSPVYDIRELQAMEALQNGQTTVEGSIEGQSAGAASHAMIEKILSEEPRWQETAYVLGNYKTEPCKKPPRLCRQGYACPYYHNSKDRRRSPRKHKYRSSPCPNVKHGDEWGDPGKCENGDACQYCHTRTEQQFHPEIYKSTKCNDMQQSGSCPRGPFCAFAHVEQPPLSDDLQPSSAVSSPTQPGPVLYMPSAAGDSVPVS
Notes: RNA with constant flanks, vertebrate orthologous sites, ends assumed
Shared flanks, not repeated: GGGAGUUCUACAGUCCGACGAUC … CAACAGAGGAUUGAGCAUCA
| Sequence | bound/input enrichment [ratio] |
| --- | --- |
| GGGUGGCCGGUGGGGGAACCCCAUGCCCUGGCCUUGCCUCCCCUCCCUGCCACCCGCUCCUAGUUAUUAUUUUUUUUUUUAACCACCAUGUGAUUAAGGUCGGCGCUGCCUCCCCCGACC | 6.15 |
| CUUUAUGGGCCUCGAAGGGUUGAAAUAAUGGAAGAAGACAGUGAACAGUAACCUUCAAUUUAGUAUUUAUGCCUAGGUGUGAUAUAAAUGUGUGUAUGUGGUGGUUUUUUUUUUUUGUUU | 3.63 |
| UUUUAUUGUACUUGGAAAAAUCUUAGUUUUAAACUAGUCACGGUGAUAACUAGUCUGUGCUAGUGGAAUCAUUUACUCUUACCUUUUAAAUUAUCUUCUCUGUCUGAUACCUGAAACCGU | 1.25 |
| AAAGCAAUGGCUUUUGCUCUAUCACAAAGCUAAGAAACAGACCCACAAAUAAAUAACAAAUAACUAUUUUUGAAAUUCAAAUGUUUAAAUUUUGUAAAUCAGCAGUUUGGGAUGUCUCGU | 0.479 |
| CCUCCCCCUGACCCUAAAGUAGAUCUUUUAAAAAUUAUGUCACCACCACUUGUAAAAAUUUAGCAAUACCAGAAGAAAACGCUAAUGAAGUAAGAAAUUUUGCUCAUUGUUUUGCAAACC | 2.77 |
| CUACAGGAGAAGAGCUCACAACUCAGAAGGAACUAUCAAGAGUUUCUAAUGGCUGAAAGCUAGGAAAAAUUAGGACAAUUUUACAAAUGAGCCAUUAAAACAAAACAAAAAAGAUAUGGA | 1.22 |
| GGGACGCUUUGAGGUAAAAAUUUUAAUUAAGAGCUGAUCACGAGCACAAAUCUUUCCCACUAGCCAUUUACUAAGUUAAAAGAGAUACACAAACCUACUAGUCUUGAACAAACUGUCAUA | 1.81 |
| GUGGCACCCACUGUGAGAGGGAGUAGGGGGAGCCCAGGAUGACCCUCGGCUGUUCCAGUUAAGUAUUUUUUCUUUUUUUAAAAUUACUGUAUUUAUUAUGACGAUGGUGACUCCCCAGUG | 0.492 |

Further values, each from its own experiment
Parent: viral docking peptide; KKAKRRLFTISDS; partner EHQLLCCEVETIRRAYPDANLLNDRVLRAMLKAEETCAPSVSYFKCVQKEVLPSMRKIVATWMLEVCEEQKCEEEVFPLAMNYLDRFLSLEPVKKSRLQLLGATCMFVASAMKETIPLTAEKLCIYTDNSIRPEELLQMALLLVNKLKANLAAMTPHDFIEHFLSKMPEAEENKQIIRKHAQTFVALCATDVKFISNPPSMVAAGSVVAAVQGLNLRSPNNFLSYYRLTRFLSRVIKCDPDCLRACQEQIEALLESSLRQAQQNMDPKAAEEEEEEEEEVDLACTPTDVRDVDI
| Substitution | target | test | system | setting | scale | quantity | result |
| --- | --- | --- | --- | --- | --- | --- | --- |
| R5K F8L | CCND1, cyclin fold, Cln2 fusion (human) | yeast growth competition, sequencing | yeast | weak parent motif | baseline: not given, higher = stronger binding | normalised enrichment score | 0.153 |

For quick reference, copied from above (sample 3):
| Sequence | bound/input enrichment [ratio] |
| --- | --- |
| CUUUAUGGGCCUCGAAGGGUUGAAAUAAUGGAAGAAGACAGUGAACAGUAACCUUCAAUUUAGUAUUUAUGCCUAGGUGUGAUAUAAAUGUGUGUAUGUGGUGGUUUUUUUUUUUUGUUU | 3.63 |
| UUUUAUUGUACUUGGAAAAAUCUUAGUUUUAAACUAGUCACGGUGAUAACUAGUCUGUGCUAGUGGAAUCAUUUACUCUUACCUUUUAAAUUAUCUUCUCUGUCUGAUACCUGAAACCGU | 1.25 |
| AAAGCAAUGGCUUUUGCUCUAUCACAAAGCUAAGAAACAGACCCACAAAUAAAUAACAAAUAACUAUUUUUGAAAUUCAAAUGUUUAAAUUUUGUAAAUCAGCAGUUUGGGAUGUCUCGU | 0.479 |
| CCUCCCCCUGACCCUAAAGUAGAUCUUUUAAAAAUUAUGUCACCACCACUUGUAAAAAUUUAGCAAUACCAGAAGAAAACGCUAAUGAAGUAAGAAAUUUUGCUCAUUGUUUUGCAAACC | 2.77 |
